# Measurements gathered from unrelated publications.
# Each line is one published result; not all experiments were run side by side. Several values in a cell are separate wells, animals, samples, runs or records.
# Target: NT-3 growth factor receptor (NTRK3, Homo sapiens, UniProt Q16288)
SMILES,test,setting,how to read,endpoint,value
Cc1cccc(O[C@H]2CCC[C@@H](C(C)CNCc3ccncc3)C2)c1 (relative stereo),cell-free assay,10 µM,,inhibition,-8%
CN1CC[C@@H](COc2cnc(C#N)cc2-c2ccn3nc(NC(=O)C4CC4)cc3c2)C1,"enzyme activity, inhibitor",1 µM,,inhibition,11%
CNC1C[S+]2CC[S+]3CC[S+](C1)[Ru-4]321([N]=C=S)[n]2c3ccc(OC)cc3c3c4c(c5cc(F)c[n+]1c5c32)C(=O)NC4=O (centres unmarked),KinomeScan,0.1 µM,relative to: untreated,remaining binding,99%
Cc1cc(NC(=O)Nc2cc(C(F)(F)F)ccc2F)ccc1C(=O)Nc1ccc2[nH]ncc2c1,"enzyme activity, inhibitor, FRET",1 µM,,inhibition,20.6%
C=CC(=O)N1Cc2nc(-c3cc(-c4cc(Cl)cnc4Cl)c(F)cc3F)n(-c3ccncn3)c2C1,cell-free assay,1 µM,,inhibition,5.4%
CCn1cc(C(=O)O)c(=O)c2c(N)c(F)c(NC3CCCCC3)cc21,kinase activity,"0.1 µM, with: ATP at Km",,inhibition,9.9%
NC(=O)[C@@H](O)C[C@H]1CCc2sc3ncnc(O[C@H]4CC[C@H](N5CCOCC5)CC4)c3c21,"enzyme activity, inhibitor",10 µM,,inhibition,67%
O=C(Nc1ccc(F)c(C(=O)Nc2ccc3[nH]ncc3c2)c1)Nc1cc(C(F)(F)F)ccc1F,"enzyme activity, inhibitor, FRET",1 µM,,inhibition,11.1%
C=CC(=O)Nc1cccc(-c2cnc3[nH]cc(C(=O)NC(C)(C)C)c3n2)c1,kinase activity,0.1 µM,,inhibition,-15% and -3%
COCC12C(=O)NC3C4(C(OC)CC1O)C1CC5(O)C(OC)C(O)C(OC(C)=O)(C1C5OC(=O)c1ccccc1)C3(O)C(OC)C24 (centres unmarked),"kinase activity, inhibitor, ProQinase kinase profiling",25 µM,relative to: control,remaining activity,117% and 112%
O=C(Nc1cc(C(F)(F)F)ccc1F)Nc1ccc(C(=O)Nc2ccc3[nH]ncc3c2)cc1C(F)(F)F,"enzyme activity, inhibitor, FRET",1 µM,,inhibition,29.7%
COc1cc(Nc2nc(C)cc(-c3cnn4nc(OC)ccc34)n2)cc(C(F)(F)F)c1,"binding, competition with immobilised ligand",1 µM,,remaining binding,84%
C=CC(=O)N1CCCC(n2c(=O)c3ncccc3n(Cc3ccc(Oc4ccccc4)cc3)c2=O)C1 (centres unmarked),"cell-free assay, competition with immobilised ligand",1 µM,,remaining binding,67%
O=C(CN1CCN(C(=O)c2ccc(C(F)(F)F)cc2)CC1)Nc1cccc(C(=O)Nc2ccc3[nH]ncc3c2)c1,"enzyme activity, inhibitor, FRET",1 µM,,inhibition,15%
C=CC(=O)N1CCc2ccc(-n3c(=O)ccc4cnc5ccc(-c6cnn(C)c6)cc5c43)cc21,KINOMEscan,1 µM,relative to: DMSO control,remaining binding,100%
CC(C)=CC1OC(C)(C)C2C=C3C(=O)C(Cl)=CC(O)C3C3C(O)C4OC4C(=O)C132 (centres unmarked),"cell-free assay, competition with immobilised ligand",10 µM,,remaining binding,69%
COc1cc(NC(=O)Nc2cc(C(F)(F)F)ccc2F)ccc1C(=O)Nc1ccc2[nH]ncc2c1,"enzyme activity, inhibitor, FRET",1 µM,,inhibition,15.3%
Cc1ccc(-c2c(/C=C(\C#N)C(=O)NC(C)C)n(CCCO)c3ncnc(N)c23)cc1,"cell-free assay, competition with immobilised ligand",1 µM,,remaining binding,98%
O=C(Nc1ccc(C(=O)Nc2ccc3[nH]ncc3c2)c(Br)c1)Nc1cc(C(F)(F)F)ccc1F,"enzyme activity, inhibitor, FRET",1 µM,,inhibition,27.4%
CCN1CCN(Cc2ccc(NC(=O)c3ccc(C)c(NC(=O)c4cncc(-c5cccs5)c4)c3)cc2C(F)(F)F)CC1,"binding, competition with immobilised ligand",1 µM,,remaining binding,20%
